# Measurements from different studies.
# Protocols differ between the studies behind these lines. Values joined by “and” are separate records of one study, mostly repeats; a detail may differ.
# PKMYT1: Membrane-associated tyrosine- and threonine-specific cdc2-inhibitory kinase (PKMYT1, Homo sapiens, UniProt Q99640)
# Chain of UniProt Q99640 (whole entry, looked up): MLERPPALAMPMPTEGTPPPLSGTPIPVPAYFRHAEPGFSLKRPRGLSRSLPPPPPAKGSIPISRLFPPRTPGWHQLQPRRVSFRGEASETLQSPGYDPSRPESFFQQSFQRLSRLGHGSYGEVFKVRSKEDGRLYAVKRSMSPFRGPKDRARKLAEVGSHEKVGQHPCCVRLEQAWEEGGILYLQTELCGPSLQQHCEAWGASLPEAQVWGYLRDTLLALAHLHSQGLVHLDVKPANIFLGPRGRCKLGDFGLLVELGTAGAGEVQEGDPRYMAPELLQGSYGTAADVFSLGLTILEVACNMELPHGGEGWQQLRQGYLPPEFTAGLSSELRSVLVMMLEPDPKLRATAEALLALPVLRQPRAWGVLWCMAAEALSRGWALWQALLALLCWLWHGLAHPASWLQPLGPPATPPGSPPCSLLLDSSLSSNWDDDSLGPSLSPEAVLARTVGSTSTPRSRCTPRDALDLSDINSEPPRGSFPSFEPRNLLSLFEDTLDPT
# Chain of UniProt P41143 (whole entry, looked up): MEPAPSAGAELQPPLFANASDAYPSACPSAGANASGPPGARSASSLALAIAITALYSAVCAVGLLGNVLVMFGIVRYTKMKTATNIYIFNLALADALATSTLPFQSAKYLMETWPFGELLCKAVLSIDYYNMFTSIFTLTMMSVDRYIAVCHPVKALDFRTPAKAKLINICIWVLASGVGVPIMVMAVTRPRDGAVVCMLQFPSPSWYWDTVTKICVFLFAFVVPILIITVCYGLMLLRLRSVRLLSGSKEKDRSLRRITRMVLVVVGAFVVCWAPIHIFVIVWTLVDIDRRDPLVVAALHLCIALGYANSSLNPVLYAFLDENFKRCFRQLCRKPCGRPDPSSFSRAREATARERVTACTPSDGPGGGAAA
Structure (SMILES),target or system,assay,test system,conditions,scale,measurement,result
Cc1ccc(O)c(C)c1-c1cnc2[nH]c(-c3cnc(N4CCC(CN5CCN(c6ccc7c8c(cccc68)C(=O)N7C6CCC(=O)NC6=O)CC5)CC4)nc3)cc2c1C#N (racemic),PKMYT1,"binding, HTRF",,333.33 nM,,inhibition,98.4% and 98.2%
Cn1cc(-c2cccc(CN3CCC4(CC3)COc3c4ccc4c3CN([C@H]3CCC(=O)NC3=O)C4=O)c2)cn1,Caco-2,,,concentration not given,,permeability (apical to basolateral),2.4%
COc1cc(C(=O)OCCCN2CCCN(CCCOC(=O)c3cc(OC)c(OC)c(OCc4ccc([N+](=O)[O-])cc4)c3)CC2)cc(OC)c1OC,,,"CD-1 mouse, male, spinal cord","subcutaneous, 30 mg/kg, 12 h",,concentration,6.99 ng/mL
N=C(N)NCCCCN1CC[C@]23c4c5ccc(O)c4O[C@H]2c2[nH]c4ccccc4c2C[C@@]3(O)[C@H]1C5,"Delta-type opioid receptor, with Gi1 (OPRD1, Homo sapiens, UniProt P41143)",agonist,,,,EC50,3.47 nM
Cc1ccc(O)c(C)c1-c1cnc2[nH]c(-c3cnc(N4CCC(CN5CCN(c6ccc(N7CCC(=O)NC7=O)cc6F)CC5)CC4)nc3)cc2c1C#N,PKMYT1,"binding, HTRF",,333.33 nM,,inhibition,98.9% and 98.8%
C=CCN1C(=O)C(O)(C(=O)O)Oc2cc(F)ccc21 (stereo not shown),Arabidopsis thaliana,hypocotyl length,Col-0,"3.125 µg/mL, 7 days, seed germination, dark",,inhibition,0.4%
N=C(N)NCCCCCCN1CCC23c4c5ccc(O)c4OC2c2nc4ccccc4cc2CC3(O)C1C5 (stereo not shown),,modified Racine scale,"C57BL/6J mice, male","intracerebroventricular, 100 nmol, 15 min",direction not given,seizure score,0

# Excerpt of the above:
Structure (SMILES),target or system,assay,test system,conditions,scale,measurement,result
C=CCN1C(=O)C(O)(C(=O)O)Oc2cc(F)ccc21 (stereo not shown),Arabidopsis thaliana,hypocotyl length,Col-0,"3.125 µg/mL, 7 days, seed germination, dark",,inhibition,0.4%
